Published values gathered from unrelated publications.
Compare with care: the assays were run in different laboratories.
Sequence of UniProt Q9HAZ1 (whole entry, looked up): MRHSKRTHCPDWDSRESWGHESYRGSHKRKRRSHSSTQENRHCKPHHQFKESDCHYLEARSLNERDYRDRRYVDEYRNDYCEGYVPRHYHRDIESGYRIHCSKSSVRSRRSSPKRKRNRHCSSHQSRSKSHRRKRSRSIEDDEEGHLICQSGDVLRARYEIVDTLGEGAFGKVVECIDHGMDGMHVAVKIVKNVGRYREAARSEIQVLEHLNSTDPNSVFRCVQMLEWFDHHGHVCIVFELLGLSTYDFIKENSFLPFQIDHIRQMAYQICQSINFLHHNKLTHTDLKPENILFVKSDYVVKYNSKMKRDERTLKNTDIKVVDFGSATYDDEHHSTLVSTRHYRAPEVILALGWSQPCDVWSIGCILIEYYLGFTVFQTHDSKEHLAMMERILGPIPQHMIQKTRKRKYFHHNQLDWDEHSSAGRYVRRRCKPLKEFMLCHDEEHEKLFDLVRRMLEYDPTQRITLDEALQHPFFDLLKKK
Sequence of UniProt P53350 (whole entry, looked up): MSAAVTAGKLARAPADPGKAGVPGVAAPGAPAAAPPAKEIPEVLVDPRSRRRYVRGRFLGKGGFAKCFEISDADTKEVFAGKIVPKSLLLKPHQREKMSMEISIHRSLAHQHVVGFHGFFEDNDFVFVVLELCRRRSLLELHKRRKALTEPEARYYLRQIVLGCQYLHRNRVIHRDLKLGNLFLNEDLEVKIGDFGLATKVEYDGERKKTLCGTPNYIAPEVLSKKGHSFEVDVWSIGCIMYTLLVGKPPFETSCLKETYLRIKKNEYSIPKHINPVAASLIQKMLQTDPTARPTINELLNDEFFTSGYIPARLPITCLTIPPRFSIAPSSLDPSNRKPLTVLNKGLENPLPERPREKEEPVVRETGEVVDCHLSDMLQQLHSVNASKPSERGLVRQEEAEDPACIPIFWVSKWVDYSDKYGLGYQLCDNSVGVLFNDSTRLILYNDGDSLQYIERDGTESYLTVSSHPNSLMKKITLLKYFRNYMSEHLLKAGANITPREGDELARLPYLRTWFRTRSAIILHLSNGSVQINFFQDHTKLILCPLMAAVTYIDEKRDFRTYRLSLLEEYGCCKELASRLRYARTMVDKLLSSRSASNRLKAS
Sequence of UniProt Q6P3R8 (whole entry, looked up): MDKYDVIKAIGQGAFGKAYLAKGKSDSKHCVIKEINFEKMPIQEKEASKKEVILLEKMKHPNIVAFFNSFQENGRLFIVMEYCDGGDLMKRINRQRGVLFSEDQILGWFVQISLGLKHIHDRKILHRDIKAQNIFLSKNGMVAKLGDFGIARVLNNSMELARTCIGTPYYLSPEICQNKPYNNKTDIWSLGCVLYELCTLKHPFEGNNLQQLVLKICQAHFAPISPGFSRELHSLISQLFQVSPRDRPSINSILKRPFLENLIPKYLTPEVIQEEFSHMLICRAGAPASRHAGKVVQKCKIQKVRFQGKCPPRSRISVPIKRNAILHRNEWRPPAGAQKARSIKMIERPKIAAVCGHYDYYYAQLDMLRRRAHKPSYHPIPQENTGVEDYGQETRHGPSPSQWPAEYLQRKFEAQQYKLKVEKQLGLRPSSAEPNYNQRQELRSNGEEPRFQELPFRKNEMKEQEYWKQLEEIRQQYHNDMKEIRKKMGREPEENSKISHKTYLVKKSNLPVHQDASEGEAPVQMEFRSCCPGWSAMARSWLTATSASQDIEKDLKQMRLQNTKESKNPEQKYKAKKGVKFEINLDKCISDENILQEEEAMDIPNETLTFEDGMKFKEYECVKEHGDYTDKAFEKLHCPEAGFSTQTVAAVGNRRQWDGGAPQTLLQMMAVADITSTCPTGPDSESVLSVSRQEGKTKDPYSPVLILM
Sequence of UniProt Q86Y07 (whole entry, looked up): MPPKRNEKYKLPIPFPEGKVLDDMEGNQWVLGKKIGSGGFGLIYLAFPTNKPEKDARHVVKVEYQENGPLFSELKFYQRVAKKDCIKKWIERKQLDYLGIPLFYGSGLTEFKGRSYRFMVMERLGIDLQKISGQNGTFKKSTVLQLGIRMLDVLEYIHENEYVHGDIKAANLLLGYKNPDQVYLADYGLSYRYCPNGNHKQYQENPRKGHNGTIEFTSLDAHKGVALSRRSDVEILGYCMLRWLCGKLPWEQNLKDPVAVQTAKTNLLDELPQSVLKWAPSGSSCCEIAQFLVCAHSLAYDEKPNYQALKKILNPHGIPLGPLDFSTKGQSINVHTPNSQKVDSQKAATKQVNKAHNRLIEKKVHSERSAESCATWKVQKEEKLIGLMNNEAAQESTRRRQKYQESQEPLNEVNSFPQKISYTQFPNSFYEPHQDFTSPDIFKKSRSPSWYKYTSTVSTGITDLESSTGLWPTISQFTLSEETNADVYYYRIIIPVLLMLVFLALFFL
Sequence of UniProt Q9H4A3 (whole entry, looked up): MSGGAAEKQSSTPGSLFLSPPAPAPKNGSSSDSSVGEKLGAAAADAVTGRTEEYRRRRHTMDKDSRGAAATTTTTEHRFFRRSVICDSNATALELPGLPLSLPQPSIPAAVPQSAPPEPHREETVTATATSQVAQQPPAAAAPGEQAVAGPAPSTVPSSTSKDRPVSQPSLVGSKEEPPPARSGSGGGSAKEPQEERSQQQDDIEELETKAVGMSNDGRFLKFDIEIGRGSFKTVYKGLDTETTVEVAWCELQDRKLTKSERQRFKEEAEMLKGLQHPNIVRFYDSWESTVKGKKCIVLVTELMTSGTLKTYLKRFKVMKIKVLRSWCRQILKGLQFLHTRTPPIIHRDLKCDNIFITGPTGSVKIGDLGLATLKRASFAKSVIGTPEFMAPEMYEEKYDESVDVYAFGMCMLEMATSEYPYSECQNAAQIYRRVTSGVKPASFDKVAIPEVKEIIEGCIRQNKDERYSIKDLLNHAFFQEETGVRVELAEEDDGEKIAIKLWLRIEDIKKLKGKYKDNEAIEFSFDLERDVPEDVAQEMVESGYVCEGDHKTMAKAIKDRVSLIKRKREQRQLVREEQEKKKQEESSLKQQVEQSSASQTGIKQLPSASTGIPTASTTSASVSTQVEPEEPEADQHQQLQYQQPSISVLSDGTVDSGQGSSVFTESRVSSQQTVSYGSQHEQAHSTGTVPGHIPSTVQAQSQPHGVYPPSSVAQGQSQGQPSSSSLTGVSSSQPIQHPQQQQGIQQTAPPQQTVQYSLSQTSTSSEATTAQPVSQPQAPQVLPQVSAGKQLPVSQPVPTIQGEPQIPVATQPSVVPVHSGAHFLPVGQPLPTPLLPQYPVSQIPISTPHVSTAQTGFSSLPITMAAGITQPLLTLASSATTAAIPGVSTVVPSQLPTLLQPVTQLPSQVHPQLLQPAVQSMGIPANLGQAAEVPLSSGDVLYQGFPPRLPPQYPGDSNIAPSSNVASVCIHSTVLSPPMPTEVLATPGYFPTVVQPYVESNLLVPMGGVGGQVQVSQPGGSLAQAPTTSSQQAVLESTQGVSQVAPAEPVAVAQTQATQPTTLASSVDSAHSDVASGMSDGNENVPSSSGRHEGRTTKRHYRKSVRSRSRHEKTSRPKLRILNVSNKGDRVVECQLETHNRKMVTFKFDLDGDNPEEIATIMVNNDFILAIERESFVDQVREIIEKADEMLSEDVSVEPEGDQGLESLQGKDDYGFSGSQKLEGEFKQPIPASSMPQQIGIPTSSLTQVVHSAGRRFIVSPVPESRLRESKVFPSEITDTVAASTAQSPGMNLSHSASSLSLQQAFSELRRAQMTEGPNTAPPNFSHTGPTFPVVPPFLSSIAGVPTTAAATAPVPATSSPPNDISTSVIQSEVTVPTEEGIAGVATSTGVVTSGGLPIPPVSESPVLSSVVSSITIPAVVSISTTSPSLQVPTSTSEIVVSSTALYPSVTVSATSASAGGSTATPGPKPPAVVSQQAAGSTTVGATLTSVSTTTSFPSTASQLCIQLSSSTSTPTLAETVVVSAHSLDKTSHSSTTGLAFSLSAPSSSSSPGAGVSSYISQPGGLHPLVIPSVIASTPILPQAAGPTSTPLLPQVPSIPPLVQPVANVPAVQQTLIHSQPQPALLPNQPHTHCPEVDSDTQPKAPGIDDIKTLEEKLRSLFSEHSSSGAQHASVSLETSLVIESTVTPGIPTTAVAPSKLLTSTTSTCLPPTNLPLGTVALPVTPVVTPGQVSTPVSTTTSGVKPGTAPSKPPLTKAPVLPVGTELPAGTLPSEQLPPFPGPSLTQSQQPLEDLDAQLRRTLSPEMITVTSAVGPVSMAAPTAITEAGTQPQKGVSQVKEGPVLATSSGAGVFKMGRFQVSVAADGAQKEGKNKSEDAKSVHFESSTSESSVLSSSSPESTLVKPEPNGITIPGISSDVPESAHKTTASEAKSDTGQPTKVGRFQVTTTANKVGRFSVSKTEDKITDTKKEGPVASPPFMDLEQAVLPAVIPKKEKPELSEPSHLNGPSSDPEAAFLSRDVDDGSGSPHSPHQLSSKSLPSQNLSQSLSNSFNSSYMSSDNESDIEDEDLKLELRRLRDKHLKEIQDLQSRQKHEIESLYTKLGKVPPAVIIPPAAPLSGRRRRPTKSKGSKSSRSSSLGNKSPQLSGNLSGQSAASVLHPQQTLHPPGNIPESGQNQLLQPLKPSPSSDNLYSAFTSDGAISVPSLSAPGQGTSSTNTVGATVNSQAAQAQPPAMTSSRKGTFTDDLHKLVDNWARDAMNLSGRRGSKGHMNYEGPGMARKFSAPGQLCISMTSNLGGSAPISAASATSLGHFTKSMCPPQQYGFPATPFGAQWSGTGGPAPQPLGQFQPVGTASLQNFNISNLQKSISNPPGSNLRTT

| SMILES | target or system | assay | system | conditions | measurement | result |
| --- | --- | --- | --- | --- | --- | --- |
| CCCCC(=O)Nc1ccc(-c2ccc3ncn(CCC)c(=O)c3c2)cn1 | WNK1 (Homo sapiens, UniProt Q9H4A3) | binding, competition with immobilised ligand |  | 0.5 µM | remaining binding | 100% |
| O=c1nc(N2CCN(CC3CCCCC3)CC2)sc2c([N+](=O)[O-])cc(C(F)(F)F)cc12 |  |  | CD-1 mouse, lung | oral, 100 mg/kg, 2 h | concentration | 644 ng/mL |
| C=CC(=O)N1CCC(COCC(=O)N2CCN(c3nc(-c4cnc(N)nc4C(F)F)nc(N4CCOC[C@@H]4C)n3)CC2)CC1 | RIOK1 (Homo sapiens, UniProt Q9BRS2) | binding, competition with immobilised ligand |  | 1 µM | remaining binding | 71% |
| Cc1cccc(N(O)N=Nc2ccc(S(=O)(=O)Nc3onc(C)c3C)cc2)c1 |  | DPPH scavenging, absorbance |  | 120 µg/mL | inhibition | 26.3% |
| Nc1ncnc2occ(-c3ccc(NC(=O)Nc4cc(C(F)(F)F)ccc4F)cc3)c12 | PIK3CA (Homo sapiens, UniProt P42336, E545K) | cell-free assay, inhibitor |  | 20 µM | remaining signal | 49% |
| CCCN(O)N=Nc1ccc(S(=O)(=O)Nc2nccs2)cc1 |  | DPPH scavenging, absorbance |  | 180 µg/mL | inhibition | 16.4% |
| C1=C/COCc2cc(ccc2OCCN2CCCC2)Nc2nccc(n2)-c2cccc(c2)COC/1 | NEK5 (Homo sapiens, UniProt Q6P3R8) | binding |  | 0.1 µM | remaining binding | 77% |
| CNc1ncc2c(/C=C/C(=O)N3CCC(OC)CC3)nn(Cc3cccc(C(F)(F)F)c3)c2n1 | VRK2 (Homo sapiens, UniProt Q86Y07) | enzyme activity, inhibitor, radiometric |  | 1 µM | remaining activity | 112% |
| COc1cc(-c2cncc3c2CN(C)Cc2cc(N4CCNCC4)ccc2-3)cc(OC)c1OC | CLK4 (Homo sapiens, UniProt Q9HAZ1) | enzyme activity, inhibitor |  | 1 µM | remaining activity | 106% |
| NC/C(=C\F)COc1cccc(Cn2c(=S)[nH]c(=O)c3[nH]cnc32)c1 | AOC1 (Homo sapiens, UniProt P19801) | enzyme activity, inhibitor |  | 3 µM | inhibition | 9.78% |
| Cc1cc([C@@H](C)Nc2ccccc2C(=O)O)c2nc(N3CCC(F)(F)CC3)c(C#N)c(=O)n2c1 | PLK1 (Homo sapiens, UniProt P53350) | binding, competition with immobilised ligand |  | 10 µM | remaining binding | 100% |

For quick reference, copied from above:
| SMILES | target or system | assay | system | conditions | measurement | result |
| --- | --- | --- | --- | --- | --- | --- |
| COc1cc(-c2cncc3c2CN(C)Cc2cc(N4CCNCC4)ccc2-3)cc(OC)c1OC | CLK4 (Homo sapiens, UniProt Q9HAZ1) | enzyme activity, inhibitor |  | 1 µM | remaining activity | 106% |
